Measurements from different studies.
Parts stem from different laboratories: compare values within a part only. Positions count from the first letter of the parent shown.

Study 1
Target: Interferon regulatory factor 7, full length, phosphomimetic (IRF7, Homo sapiens, UniProt Q92985, residues 1-503, S471D/S472D/S475D/S476D/S477D/S483D/S484D/S487D)
Sequence of UniProt Q92985 (whole entry, unmodified, looked up): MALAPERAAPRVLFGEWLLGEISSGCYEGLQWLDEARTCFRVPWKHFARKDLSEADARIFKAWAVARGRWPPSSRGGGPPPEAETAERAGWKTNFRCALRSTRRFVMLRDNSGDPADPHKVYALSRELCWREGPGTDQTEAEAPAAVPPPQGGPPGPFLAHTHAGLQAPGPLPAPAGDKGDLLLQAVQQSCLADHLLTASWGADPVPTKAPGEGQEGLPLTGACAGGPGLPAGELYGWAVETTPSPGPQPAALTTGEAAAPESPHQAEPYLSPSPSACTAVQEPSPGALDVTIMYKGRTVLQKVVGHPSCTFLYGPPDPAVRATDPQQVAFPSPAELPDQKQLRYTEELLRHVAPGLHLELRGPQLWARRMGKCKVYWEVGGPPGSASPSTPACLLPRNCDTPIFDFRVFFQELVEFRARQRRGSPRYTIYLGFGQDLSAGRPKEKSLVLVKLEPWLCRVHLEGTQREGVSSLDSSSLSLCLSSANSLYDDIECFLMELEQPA
Technique: protein-binding microarray
Molecule type: double-stranded DNA, one strand shown
Medium: in vitro
Tested at: 2200 nM top
Notes: 60-bp whole probe
Added: salmon DNA 0.4 mg/ml
Relative to: random background probes
Reading: higher = stronger binding
Constant ends, left off below: GCCTAGCAC … GTCTTGATTCGCTTGACGCTGCTG
Under “fitted relative affinity”, `TTAGGTTTCCTTATCCTTAAGTGCTAG` is recorded as 2.09 z-score.
`TCAAGCCTAAGGTTTAGGACTGTGCTA`: “fitted relative affinity” -1 z-score.
For `TTGCAGATGACGAAACTGAAGTGCTAG`, “fitted relative affinity” read 0.34 z-score.
`GACGATTTCAGACTGGAGACGTGCTAG`: “fitted relative affinity” 0.339 z-score.
Under “fitted relative affinity”, `TCATTTTTTTCTATATGACTGTGCTAG` is recorded as 2.02 z-score.
`TCATATATTATATATTTAACTGTGCTA` — result for “fitted relative affinity”: 0.609 z-score.
Under “fitted relative affinity”, `TTAGGTTTCGGGACTGGCTTAGTGCTA` is recorded as 2.88 z-score.
`TCAAGTTTGTATATATTACTGTGCTAG`: “fitted relative affinity” 0.537 z-score.
Under “fitted relative affinity”, `GACGGTCTCCTTTTCCAGACGTGCTAG` is recorded as 1.64 z-score.
`TATTTTTTCTGAACCATTTTGTGCTAG`: “fitted relative affinity” 1.59 z-score.
Under “fitted relative affinity”, `TTCTCTTTCCTTCTTGATGCGTGCTAG` is recorded as 3.27 z-score.
For `TCATTTTTATCAATCATACTGTGCTAG`, “fitted relative affinity” read 1.3 z-score.

Study 2
Target: ABI1, truncated, D143A, DHFR fusion (Arabidopsis thaliana)
Technique: DHFR PCA, deep sequencing
Medium: yeast
Notes: methotrexate growth selection, single substitutions
Added: (+)-ABA 2500 µM
Relative to: wild-type fitted maximum
Reading: higher = stronger binding
Starting sequence: PYL1, truncated, DHFR fusion (Arabidopsis thaliana); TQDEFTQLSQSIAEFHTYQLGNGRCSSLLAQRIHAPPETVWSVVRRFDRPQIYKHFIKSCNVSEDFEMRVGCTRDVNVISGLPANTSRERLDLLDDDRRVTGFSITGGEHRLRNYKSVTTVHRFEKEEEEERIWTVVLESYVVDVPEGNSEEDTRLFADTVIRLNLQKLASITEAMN
Under “relative binding score”, `Y18L` is recorded as 94%.
Under “relative binding score”, `Q2P` is recorded as 97.4%.
`A30I` — result for “relative binding score”: 95.4%.
`V143D` — result for “relative binding score”: -7.44%.
`L29S` — result for “relative binding score”: 90.5%.
Under “relative binding score”, `W41E` is recorded as 11.4%.
Under “relative binding score”, `T101I` is recorded as 103%.
`G107M` — result for “relative binding score”: 89.6%.
`T39R`: “relative binding score” 97%.
`C72M`: “relative binding score” 95.9%.

Study 3
Target: CCNB3, cyclin fold, Cln2 fusion (human)
Technique: yeast growth competition, sequencing
Medium: yeast
Notes: weak parent motif
Relative to: not given
Reading: higher = stronger binding
Starting sequence: CDC6 docking peptide (human); TLKGRRLVFDNQL; partner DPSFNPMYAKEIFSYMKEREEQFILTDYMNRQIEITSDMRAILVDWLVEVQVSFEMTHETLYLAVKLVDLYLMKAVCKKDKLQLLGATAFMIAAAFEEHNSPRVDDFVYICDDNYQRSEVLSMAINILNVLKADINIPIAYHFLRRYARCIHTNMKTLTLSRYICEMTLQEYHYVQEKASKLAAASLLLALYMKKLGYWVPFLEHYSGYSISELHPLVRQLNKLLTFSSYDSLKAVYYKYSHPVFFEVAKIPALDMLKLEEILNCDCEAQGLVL
`D10N`: “normalised enrichment score” 0.601.
Under “normalised enrichment score”, `G4S` is recorded as -0.471.
For `T1A`, “normalised enrichment score” read 0.464.
For `K3Y`, “normalised enrichment score” read 0.631.
`N11P`: “normalised enrichment score” 0.156.
`G4W`: “normalised enrichment score” 0.454.
`G4L` — result for “normalised enrichment score”: -0.103.
For `N11E`, “normalised enrichment score” read 0.201.
`N11L`: “normalised enrichment score” -0.00396.

Mixed results
`PhoQ, residues 284 288 289 292 302 303 TLASMF` has a fold induction of 32.1 (PhoP, residues 12 14 15 18 19 MHTVL (Escherichia coli, UniProt P23836); Sort-seq, measured: YFP reporter; E. coli; PhoQ-PhoP variant library, added: 10 µM Mg2+; relative to: high Mg2+ state, higher = stronger signaling).

Excerpt of the above (study 3):
`N11P`: “normalised enrichment score” 0.156.
Under “normalised enrichment score”, `G4S` is recorded as -0.471.
`G4L` — result for “normalised enrichment score”: -0.103.
For `K3Y`, “normalised enrichment score” read 0.631.
